Published values gathered from unrelated publications.
± marks the error that the study gave.
Technique: steady-state kinetics
B1: cyc1 F96Y (Streptomyces coelicolor, UniProt Q9K499); chain MHAFPHGTTATPTAIAVPPSLRLPVIEAAFPRQLHPYWPKLQETTRTWLLEKRLMPADKVEEYADGLCYTDLMAGYYLGAPDEVLQAIADYSAWFYVWDDRHDRDIVHGRAGAWRRLRGLLHTALDSPGDHLHHEDTLVAGFADSVRRLYAFLPATWNARFARHFHTVIEAYDREFHNRTRGIVPGVEEYLELRRLTFAHWIWTDLLEPSSGCELPDAVRKHPAYRRAALLSQEFAAWYNDLCSLPKEIAGDEVHNLGISLITHHSLTLEEAIGEVRRRVEECITEFLAVERDALRFADELADGTVRGKELSGAVRANVGNMRNWFSSVYWFHHESGRYMVDSWDDRSTPPYVNNEAAGEK
B2: ycjR (Escherichia coli, UniProt P76044); chain MKIGTQNQAFFPENILEKFRYIKEMGFDGFEIDGKLLVNNIEEVKAAIKETGLPVTTACGGYDGWIGDFIEERRLNGLKQIERILEALAEVGGKGIVVPAAWGMFTFRLPPMTSPRSLDGDRKMVSDSLRVLEQVAARTGTVVYLEPLNRYQDHMINTLADARRYIVENDLKHVQIIGDFYHMNIEEDNLAQALHDNRDLLGHVHIADNHRYQPGSGTLDFHALFEQLRADNYQGYVVYEGRIRAEDPAQAYRDSLAWLRTC
B3: moaA (Staphylococcus aureus, UniProt P69848); chain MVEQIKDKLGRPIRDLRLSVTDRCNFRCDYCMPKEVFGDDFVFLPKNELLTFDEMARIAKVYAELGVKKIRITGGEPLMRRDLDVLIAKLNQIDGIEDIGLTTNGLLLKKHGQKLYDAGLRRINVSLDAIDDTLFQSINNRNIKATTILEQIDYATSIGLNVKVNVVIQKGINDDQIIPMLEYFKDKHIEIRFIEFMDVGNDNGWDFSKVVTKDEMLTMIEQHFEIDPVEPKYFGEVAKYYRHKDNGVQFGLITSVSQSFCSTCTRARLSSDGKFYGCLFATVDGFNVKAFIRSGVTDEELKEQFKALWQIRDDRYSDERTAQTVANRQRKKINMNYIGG
B4: enzyme (Bacillus pumilus, UniProt A8FFI9); chain EARSIAWSVDEFFKNREGTFVIQEVKEKSPWVYNKKRAKERFAPQSTFKVANALIGLQTGAVRDEYDIKYWDGVKREIDNWNRDHTLGSGMRDSVVWYYQAMARDIGEERMNHWVKAIHYGNKDISGGIDQFWLSSTLRISPIEQVRFLKQLYEETLPFDLKNMRTVKRMMVQEEEKHATLYGKTGSGSDIGWYVGFIKHEHKTYILATNIKGTGIEAKDITYRILKKYHLMEASV
B5: tsaM1 F253S/G291W/H204M/H255G/M230N/R216A/S234V/S257H/T232I/Y220I (Comamonas testosteroni, UniProt P94679); chain MFIRNCWYVAAWDTEIPAEGLFHRTLLNEPVLLYRDTQGRVVALENRCCHRSAPLHIGRQEGDCVRCLYHGLKFNPSGACVEIPGQEQIPPKTCIKSYPVVERNRLVWIWMGDPARANPDDIVDYFWHDSPEWRMKPGYIHYQANYKLIVDNLLDFTHLAWVHPTTLGTDSAASLKPVIERDTTGTGKLTITRWYLNDDMSNLMKGVAKFEGKADAWQIIQWSPPALLRNDIGVAPTGTGAPEGRRVPEAVQSRGTHIQTPETETTSHYWFCQARNFDLDDEALTEKIYQWVVVAFEEDRTMIEAHEKILSQVPDRPMVPIAADAGLNQGRWLLDRLLKAENGGTAP
B6: enzyme (Thermus thermophilus, UniProt Q5SJ64); chain MRNQELARIFEEIGLMSEFLGDNPFRVRAYHQAARTLYDLDTPIEEIAEKGKEALMELPGVGPDLAEKILEFLRTGKVRKHEELSRKVPRGVLEVMEVPGVGPKTARLLYEGLGIDSLEKLKAALDRGDLTRLKGFGPKRAERIREGLALAQAAGKRRPLGAVLSLARSLLEAIRALPGVERAELCGSARRYKDTVGDLDFLVASREGERAVEGFVRLPQVKEVYAKGKERATVFLKNGLQVDLRVVPPESYGAGLQYLTGSKAHSIRLRALAQEKGLKLSEYGVFRGEKRIAGETEEEVYAALGLPWIPPPLREDQGEVEAALEGRLPKLLELPQVKGDLQVHSTYSDGQNTLEELWEAAKTMGYRYLAVTDHSPAVRVAGGPSPEEALKRVGEIRRFNETHGPPYLLAGAEVDIHPDGTLDYPDWVLRELDLVLVSVHSRFNLPKADQTKRLLKALENPFVHVLAHPTARLLGRRAPIEADWEAVFQKAKEKGVAVEIDGYYDRMDLPDDLARMAYGMGLWISLSTDAHQTDHLRFMELAVGTAQRAWIGPERVLNTLDYEDLLSWLKARRGV
B7: HCT R356D (Coleus scutellarioides, UniProt E8ZAP2); chain MKIHVRDSTLVRPSAATPAVSLWNSNVDLVVPNFHTPSVYFYRPSGADNFFDTAVMKAALGRALVSFYPMAGRLKRDEDGRVEIDCNAEGVLFVEAESDGTVDDYGDFAPSLELRRLIPAVDYSQGISAYPLLVLQVTFFKCGGVSLGVGMQHHAADGFSGLHFINTWSDMARGLDITLPPFIDRTLLSARDPPQPQFKHVEYQPPPAMKTYEPAETVVSIFKLTKDQLTTLKAKSKEDGNTTTYSSYEMLSGHVWRCTCLARGLPEEQETKLYIATDGRSRLQPQLPPGYFGNVIFTATPLAVAGDLGSKPVWYAASKIHDALARMDNDYLRSALDFLELQPDLKALVRGAHTFDCPNLGITSWVRLPIHDADFGWGRPIFMGPGGIAYEGLSFVLPSPTNDGSLSVAISLQAEHMKLFEKLLYQI
B8: enzyme G29Y (Thermobifida fusca, UniProt Q47RA9); chain MIMIMASKSSPHDLPDVSGLSIAVLGGTYDQGRGLARRFAMAGHEVILGSRSAERAQAVAAELGEGLPVRGMDNAGAAEAGDVVIVAVPWDGHRALLESLKDVLAGKIVVDCVNPLGFDKRGAYALPVEEGSAAEQAAAILPDSRVVAAFHHVSAVLLLDPEVEKVDLDVLVLGDDREATDVVRALAARIPGVRGVYGGRLRNAHQVEAFTANLISINRRYKAHAGIRITDI
B9: protein Y93S (Thermus thermophilus, UniProt Q5SKR5); chain MSAPKPFVIGIAGGTASGKTTLAQALARTLGERVALLPMDHYYKDLGHLPLEERLRVNYDHPDAFDLALYLEHAQALLRGLPVEMPVYDFRASTRSPRRTPVRPAPVVILEGILVLYPKELRDLMDLKVFVDADADERFIRRLKRDVLERGRSLEGVVAQYLEQVKPMHLHFVEPTKRYADVIVPRGGQNPVALEMLAAKALARLARMGAA
UniProt O48715, sequence (whole entry, looked up): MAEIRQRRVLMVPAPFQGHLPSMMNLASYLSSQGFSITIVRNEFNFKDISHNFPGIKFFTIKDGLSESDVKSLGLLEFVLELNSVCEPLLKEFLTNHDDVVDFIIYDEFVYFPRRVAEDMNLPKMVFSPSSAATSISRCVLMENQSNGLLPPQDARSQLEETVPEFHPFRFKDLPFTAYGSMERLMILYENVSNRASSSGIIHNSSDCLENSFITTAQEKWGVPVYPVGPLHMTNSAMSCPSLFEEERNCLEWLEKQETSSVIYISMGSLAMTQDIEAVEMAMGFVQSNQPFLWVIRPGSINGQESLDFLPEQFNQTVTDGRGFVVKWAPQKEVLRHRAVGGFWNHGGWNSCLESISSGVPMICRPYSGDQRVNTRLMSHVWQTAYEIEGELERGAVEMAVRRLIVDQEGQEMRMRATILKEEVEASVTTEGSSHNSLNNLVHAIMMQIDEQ
UniProt Q9UBT6, sequence (whole entry, looked up): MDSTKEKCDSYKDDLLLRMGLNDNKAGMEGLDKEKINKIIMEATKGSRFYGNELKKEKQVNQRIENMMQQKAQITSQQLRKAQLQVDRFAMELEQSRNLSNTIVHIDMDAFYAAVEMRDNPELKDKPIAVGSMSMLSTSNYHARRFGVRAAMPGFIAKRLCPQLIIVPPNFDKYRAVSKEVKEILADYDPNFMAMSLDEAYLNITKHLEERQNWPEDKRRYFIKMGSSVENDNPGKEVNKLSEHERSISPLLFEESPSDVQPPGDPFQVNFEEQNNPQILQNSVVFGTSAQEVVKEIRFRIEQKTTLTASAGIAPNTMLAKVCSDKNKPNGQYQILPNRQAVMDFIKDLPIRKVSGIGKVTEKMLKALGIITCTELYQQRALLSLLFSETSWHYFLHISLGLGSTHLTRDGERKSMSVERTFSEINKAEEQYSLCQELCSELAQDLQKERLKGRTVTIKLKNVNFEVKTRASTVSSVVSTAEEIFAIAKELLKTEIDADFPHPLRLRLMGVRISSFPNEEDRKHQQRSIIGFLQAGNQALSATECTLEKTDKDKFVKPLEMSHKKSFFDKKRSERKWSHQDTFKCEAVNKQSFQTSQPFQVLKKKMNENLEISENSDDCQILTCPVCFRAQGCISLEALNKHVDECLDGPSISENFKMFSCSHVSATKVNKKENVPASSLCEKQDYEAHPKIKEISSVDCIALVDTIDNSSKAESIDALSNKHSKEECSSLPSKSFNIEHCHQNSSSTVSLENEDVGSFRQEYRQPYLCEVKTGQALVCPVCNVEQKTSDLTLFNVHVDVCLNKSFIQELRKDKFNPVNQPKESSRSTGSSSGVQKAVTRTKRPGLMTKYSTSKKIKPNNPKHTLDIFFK
UniProt P42982, sequence (whole entry, looked up): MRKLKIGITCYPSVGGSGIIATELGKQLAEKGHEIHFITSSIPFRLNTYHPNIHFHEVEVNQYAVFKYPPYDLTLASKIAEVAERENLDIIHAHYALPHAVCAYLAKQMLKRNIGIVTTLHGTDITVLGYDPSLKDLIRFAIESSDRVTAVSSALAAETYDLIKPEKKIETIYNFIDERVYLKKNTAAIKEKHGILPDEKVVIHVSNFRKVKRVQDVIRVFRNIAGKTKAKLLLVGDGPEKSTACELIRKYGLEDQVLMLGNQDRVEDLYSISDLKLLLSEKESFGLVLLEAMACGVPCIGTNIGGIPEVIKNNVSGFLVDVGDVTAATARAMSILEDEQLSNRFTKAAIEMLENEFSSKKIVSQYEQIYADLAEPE

| Substance | substrate | conditions | kcat/Km |
| --- | --- | --- | --- |
| B1 (cyc1 F96Y) | CC(C)=CCC/C(C)=C/CC/C(C)=C/CO[P@@](=O)(O)OP(=O)(O)O | pH 6.5, 30 °C, together with: MgCl2 10 mM | 107 ± 2 M⁻¹ s⁻¹ |
| B2 (ycjR) | CO[C@H]1O[C@H](CO)[C@@H](O)C(=O)[C@H]1O | pH 8, 30 °C, together with: MnCl2 0.5 mM, NADH 0.3 mM | 520 ± 77 M⁻¹ s⁻¹ |
| B3 (moaA) | C[S+](CC[C@H](N)C(=O)O)C[C@H]1O[C@@H](n2cnc3c(N)ncnc32)[C@H](O)[C@@H]1O | pH 7.6, 25 °C, together with: GTP, dithionite, MgCl2 1 mM | 183 ± 50 M⁻¹ s⁻¹ |
| B4 (enzyme) | C[C@@H](O)[C@H]1C(=O)N2C(C(=O)O)=C(S[C@@H]3CN[C@H](CNS(N)(=O)=O)C3)[C@H](C)[C@H]12 | pH 7 | 3400 ± 900 M⁻¹ s⁻¹ |
| B5 | COc1c(Cl)ccc(Cl)c1C(=O)O | apparent, together with: NADH 1 mM | 1100 ± 200 M⁻¹ s⁻¹ |
| B6 (enzyme) | Nc1nc2c([nH]c(=O)n2[C@H]2C[C@H](O)[C@@H](COP(=O)(O)OP(=O)(O)OP(=O)(O)O)O2)c(=O)[nH]1 | pH 7.5, 37 °C | 6500 ± 1000 M⁻¹ s⁻¹ |
| POLK (Homo sapiens, UniProt Q9UBT6) | Nc1ncnc2c1ncn2[C@H]1C[C@H](O)[C@@H](COP(=O)(O)OP(=O)(O)OP(=O)(O)O)O1 | pH 7.5, 23 °C, MgCl2 5 mM, together with: 8-oxoG template | 7100 M⁻¹ s⁻¹ |
| protein (Actinidia chinensis, UniProt H9M5U5) | CC(C)=CCC/C(C)=C/CC/C(C)=C/CO[P@@](=O)(O)OP(=O)(O)O | pH 7.5, room temperature, labelled compound, together with: MgCl2 20 mM | 300000 M⁻¹ s⁻¹ |
| Ptb (Listeria monocytogenes, UniProt Q8Y7B7) | CC(C)CC(=O)SCCNC(=O)CCNC(=O)[C@H](O)C(C)(C)COP(=O)(O)OP(=O)(O)OC[C@H]1O[C@@H](n2cnc3c(N)ncnc32)[C@H](O)[C@@H]1OP(=O)(O)O | pH 7.5, 25 °C, apparent | 1.96e+07 M⁻¹ s⁻¹ |
| BshA (Bacillus subtilis, UniProt P42982) | CC(=O)N[C@H]1[C@@H](OP(=O)(O)OP(=O)(O)OC[C@H]2O[C@@H](n3ccc(=O)[nH]c3=O)[C@H](O)[C@@H]2O)O[C@H](CO)[C@@H](O)[C@@H]1O | pH 7.5, 21 °C, together with: malate 0–25 mM | 16000 M⁻¹ s⁻¹ |
| enzyme (Arabidopsis thaliana, UniProt O48715) | O=c1ccn([C@@H]2O[C@H](CO[P@@](=O)(O)O[P@@](=O)(O)O[C@H]3O[C@H](CO)[C@@H](O)[C@H](O)[C@H]3O)[C@@H](O)[C@H]2O)c(=O)[nH]1 | pH 7.5, 25 °C | 185 M⁻¹ s⁻¹ |
| AphC (Rhodococcus jostii, UniProt Q0S9X1) | Oc1ccc(-c2ccccc2)cc1O | pH 8, 25 °C, apparent, together with: O2 | 47000 M⁻¹ s⁻¹ |
| protein I23F/S203N/S29F (Manduca sexta, UniProt Q8I8Y1) | Oc1ccc(O)cc1 | pH 7 | 13.3 M⁻¹ s⁻¹ |
| B7 (HCT R356D) | NCc1ccc(O)c(O)c1 | pH 8, pseudo-first-order, together with: p-coumaroyl CoA | 769 ± 41.5 M⁻¹ s⁻¹ |
| B8 (enzyme G29Y) | NC(=O)c1ccc[n+](CCO)c1 | pH 8, 25 °C | 4.5 ± 1 M⁻¹ s⁻¹ |
| B9 (protein Y93S) | Nc1ccn([C@@H]2O[C@H](CO)[C@@H](O)[C@H]2O)c(=O)n1 | pH 7.2, 25 °C, KCl 100 mM, together with: ATP 100–200 µM | 32000 M⁻¹ s⁻¹ |

Repeated from above:
| Substance | substrate | conditions | kcat/Km |
| --- | --- | --- | --- |
| B8 (enzyme G29Y) | NC(=O)c1ccc[n+](CCO)c1 | pH 8, 25 °C | 4.5 ± 1 M⁻¹ s⁻¹ |
